{"data": "Earlier results that unrelated publications cite", "note": "Each line is one published result; not all experiments were run side by side. Numbers after ± are the reported error.", "sequence of UniProt P10635 (whole entry, looked up)": "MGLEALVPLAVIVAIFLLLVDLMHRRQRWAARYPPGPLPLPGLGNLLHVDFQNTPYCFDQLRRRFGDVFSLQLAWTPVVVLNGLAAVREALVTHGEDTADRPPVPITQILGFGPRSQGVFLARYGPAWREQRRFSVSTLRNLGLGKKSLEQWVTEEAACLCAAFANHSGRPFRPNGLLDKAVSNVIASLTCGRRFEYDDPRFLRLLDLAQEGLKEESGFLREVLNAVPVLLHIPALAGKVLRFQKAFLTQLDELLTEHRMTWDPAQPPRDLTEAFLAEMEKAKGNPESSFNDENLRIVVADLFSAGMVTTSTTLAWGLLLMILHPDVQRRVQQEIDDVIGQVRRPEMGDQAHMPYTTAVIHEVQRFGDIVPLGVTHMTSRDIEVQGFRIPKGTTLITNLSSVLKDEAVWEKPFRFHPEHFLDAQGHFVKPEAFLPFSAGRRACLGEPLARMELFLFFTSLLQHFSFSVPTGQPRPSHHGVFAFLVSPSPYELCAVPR", "sequence of UniProt P08183 (whole entry, looked up)": "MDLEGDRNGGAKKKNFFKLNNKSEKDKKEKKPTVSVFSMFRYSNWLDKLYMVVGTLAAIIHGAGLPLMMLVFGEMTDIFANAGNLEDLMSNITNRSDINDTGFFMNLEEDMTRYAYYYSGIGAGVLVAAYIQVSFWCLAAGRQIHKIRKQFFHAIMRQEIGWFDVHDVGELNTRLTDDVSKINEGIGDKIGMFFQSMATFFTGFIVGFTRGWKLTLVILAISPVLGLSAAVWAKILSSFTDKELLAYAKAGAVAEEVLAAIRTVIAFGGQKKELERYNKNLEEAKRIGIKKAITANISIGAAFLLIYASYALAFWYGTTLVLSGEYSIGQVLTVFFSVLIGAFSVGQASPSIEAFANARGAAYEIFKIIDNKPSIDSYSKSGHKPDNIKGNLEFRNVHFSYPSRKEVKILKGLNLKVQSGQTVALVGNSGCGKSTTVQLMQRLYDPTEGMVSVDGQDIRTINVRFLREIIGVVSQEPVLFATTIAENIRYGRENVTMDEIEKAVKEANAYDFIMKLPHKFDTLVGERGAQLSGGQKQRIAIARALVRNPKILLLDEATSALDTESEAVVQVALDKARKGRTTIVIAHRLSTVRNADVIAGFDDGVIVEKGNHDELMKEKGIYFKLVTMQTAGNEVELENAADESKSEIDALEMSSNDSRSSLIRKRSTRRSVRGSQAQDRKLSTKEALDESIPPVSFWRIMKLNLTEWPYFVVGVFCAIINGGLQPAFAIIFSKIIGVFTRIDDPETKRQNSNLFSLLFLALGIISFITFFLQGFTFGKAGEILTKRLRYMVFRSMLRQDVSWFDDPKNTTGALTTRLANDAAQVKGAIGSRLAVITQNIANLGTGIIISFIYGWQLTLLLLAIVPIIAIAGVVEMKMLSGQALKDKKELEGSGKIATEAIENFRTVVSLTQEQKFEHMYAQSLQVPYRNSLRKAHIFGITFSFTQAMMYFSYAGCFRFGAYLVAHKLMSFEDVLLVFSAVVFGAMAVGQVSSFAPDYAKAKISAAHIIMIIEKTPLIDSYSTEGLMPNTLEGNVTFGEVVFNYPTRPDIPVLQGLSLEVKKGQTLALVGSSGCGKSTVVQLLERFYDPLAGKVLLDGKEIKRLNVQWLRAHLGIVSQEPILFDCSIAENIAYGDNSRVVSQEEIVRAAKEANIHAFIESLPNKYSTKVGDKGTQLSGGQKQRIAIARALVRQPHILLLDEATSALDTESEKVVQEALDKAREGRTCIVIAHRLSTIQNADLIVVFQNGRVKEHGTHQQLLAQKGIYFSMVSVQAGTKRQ"}
{"SMILES": "CC(=O)O[C@H]1C2=C(C(=O)C(O)=C(C(C)C)C2=O)[C@@]2(C)CCCC(C)(C)[C@@H]2[C@@H]1O", "target or system": "NCI-H460", "endpoint": "GI50", "result": "≤ 5 µM"}
{"SMILES": "Cc1[nH]nc2c1N=C(c1ccccc1Cl)c1cnc(N3CCOCC3)cc1N2", "target or system": "CYP3A4", "test": "substrate, chemical inhibition", "endpoint": "contribution to metabolism", "result": "37.5%"}
{"SMILES": "CC(=O)O[C@H]1C2=C(C(=O)C(O)=C(C(C)C)C2=O)[C@@]2(C)CCCC(C)(C)[C@@H]2[C@@H]1OC(=O)c1ccc([N+](=O)[O-])cc1", "target or system": "MCF7", "test": "cell growth", "endpoint": "GI50", "result": "5 to 10 µM"}
{"SMILES": "Cc1ccccc1-c1cc(N2CC[N+](C)([O-])CC2)ncc1N(C)C(=O)C(C)(C)c1cc(C(F)(F)F)cc(C(F)(F)F)c1", "test system": "healthy volunteers, plasma", "setting": "oral, 450 mg, single dose, netupitant alone", "endpoint": "half-life", "result": "67.2 h"}
{"SMILES": "C=C[C@@H]1C[C@]1(NC(=O)[C@@H]1C[C@@H](Oc2cc(-c3ccccc3)nc3cc(OC)ccc23)CN1C(=O)[C@@H](NC(=O)OC(C)(C)C)C(C)(C)C)C(=O)NS(=O)(=O)C1CC1", "test system": "rat", "setting": "intravenous, 5 mg/kg", "endpoint": "half-life", "result": "1 h"}
{"SMILES": "CC(=O)O[C@H]1C2=C(C(=O)C(OC(=O)c3ccc(C)cc3)=C(C(C)C)C2=O)[C@@]2(C)CCCC(C)(C)[C@@H]2[C@@H]1O", "target or system": "MOLT-3", "endpoint": "GI50", "result": "≤ 5 µM"}
{"SMILES": "COCCOCCOCCOCCC(=O)NCc1cc(CNC(=O)CCOCCOCCOCCOC)cc(-c2cc3cc4nc(c(OC)c5[nH]c(cc6nc(cc2[nH]3)CC6(C)C)cc5-c2cc(CNC(=O)CCOCCOCCOCCOC)cc(CNC(=O)CCOCCOCCOCCOC)c2)CC4(C)C)c1", "test system": "PBS", "setting": "room temperature", "endpoint": "fluorescence quantum yield", "result": 0.16}
{"SMILES": "CN1CCN(c2cc(-c3ccccc3CO)c(N(C)C(=O)C(C)(C)c3cc(C(F)(F)F)cc(C(F)(F)F)c3)cn2)CC1", "test system": "systemic circulation", "how to read": "relative to: metabolite over netupitant", "endpoint": "exposure ratio", "result": "33%"}
{"SMILES": "CC(=O)OC1=C(C(C)C)C(=O)C2=C(C1=O)[C@@]1(C)CCCC(C)(C)[C@@H]1[C@H](OC(C)=O)[C@H]2OC(C)=O", "target or system": "HL-60", "test": "cell growth", "endpoint": "GI50", "result": "5 to 10 µM"}
{"SMILES": "O=C1c2ccccc2-c2c1c1ccc([N+](=O)[O-])cc1c(=O)n2C[C@H](O)[C@@H](O)[C@H](O)[C@H](O)CO", "target or system": "OVCAR-3", "test": "cell growth", "setting": "ovarian cancer panel", "endpoint": "GI50", "result": "4.26 µM"}
{"SMILES": "CN1CCC(C)(C)c2cc3c(-c4ccc(C(=O)N5CCCCC5)s4)c4ccc(=[N+](C)C)cc-4sc3cc21", "target or system": "ATP-dependent translocase ABCB1 (ABCB1, Homo sapiens, UniProt P08183)", "test": "substrate", "setting": "concentration not given, with inhibitor", "endpoint": "cell-associated fraction", "result": "45 ± 1%"}
{"SMILES": "Cc1cc(N2CC[C@@](C#N)(C3(C)CC3)C2=O)cc(C(=O)NCc2cc(F)cc(-c3cnn(C)c3)c2)n1", "target or system": "ARPE-19", "test": "cytotoxicity", "endpoint": "CC50", "result": "0.295 µM"}
{"SMILES": "CC(=O)N1CCC(NC(=O)NC23CC4CC(C)(CC(C2)c2ccccc24)C3)CC1", "target or system": "Cytochrome P450 2D6 (CYP2D6, Homo sapiens, UniProt P10635)", "setting": "10 µM", "endpoint": "inhibition", "result": "34 ± 1%"}
{"SMILES": "CCCC(=O)O[C@@H]1[C@@H](OC(C)=O)C2=C(C(=O)C(O)=C(C(C)C)C2=O)[C@@]2(C)CCCC(C)(C)[C@H]12", "target or system": "HL-60", "test": "cell growth", "endpoint": "GI50", "result": "5 to 10 µM"}
{"SMILES": "Cc1ccccc1-c1cc(N2CCNCC2)ncc1N(C)C(=O)C(C)(C)c1cc(C(F)(F)F)cc(C(F)(F)F)c1", "test system": "healthy volunteers, plasma", "setting": "oral, 450 mg, single dose, with: palonosetron 0.75 mg", "endpoint": "half-life", "result": "73.8 h"}
{"SMILES": "O=C1c2ccccc2-c2c1c1ccc([N+](=O)[O-])cc1c(=O)n2C[C@H](O)CO", "target or system": "HCT-116", "test": "cell growth", "test system": "colon cancer", "endpoint": "GI50", "result": "0.025 µM"}
{"note": "For quick reference, copied from above:"}
{"SMILES": "CC(=O)O[C@H]1C2=C(C(=O)C(O)=C(C(C)C)C2=O)[C@@]2(C)CCCC(C)(C)[C@@H]2[C@@H]1OC(=O)c1ccc([N+](=O)[O-])cc1", "target or system": "MCF7", "test": "cell growth", "endpoint": "GI50", "result": "5 to 10 µM"}
